{"data": "Assay results gathered from unrelated publications", "note": "Each line is one published result; not all experiments were run side by side. Values joined by “and” are separate records of one study, mostly repeats; a detail may differ. Numbers after ± are the reported error."}
{"SMILES": "Cc1cnc2nc1Nc1cccc(c1)COC/C=C/COCc1cc(ccc1OCCN1CCOCC1)N2", "target": "FLT3 ITD", "test": "kinase binding panel", "conditions": "concentration not given", "quantity": "remaining binding", "result": "7.9%"}
{"SMILES": "Cc1cn(CC(=O)N(CCNC(=O)CN(CCNC(=O)CN(CCNC(=O)CN(CCNC(=O)CN(CCNC(=O)CN(CCNC(=O)CN(CCNC(=O)CN(CCN)C(=O)Cn2cnc3c(=O)[nH]c(N)nc32)C(=O)Cn2cnc3c(N)ncnc32)C(=O)Cn2cc(C)c(=O)[nH]c2=O)C(=O)Cn2cnc3c(=O)[nH]c(N)nc32)C(=O)Cn2cc(C)c(=O)[nH]c2=O)C(=O)Cn2cnc3c(=O)[nH]c(N)nc32)C(=O)Cn2cnc3c(N)ncnc32)CC(=O)NCCN(CC(=O)NCCOCCOCC(N)=O)C(=O)Cn2cnc3c(N)ncnc32)c(=O)[nH]c1=O", "target": "mismatched RNA TG", "test": "duplex formation, UV melting", "how to read": "baseline: complementary RNA", "quantity": "ΔTm", "result": "-10.3 °C"}
{"SMILES": "CCN1CCN(Cc2ccc(NC(=O)c3ccc(C)c(NC(=O)c4cncc(-c5cccs5)c4)c3)cc2C(F)(F)F)CC1", "target": "FLT3 ITD", "test": "KinomeScan", "conditions": "1 µM", "how to read": "baseline: DMSO control", "quantity": "binding", "result": "2.2%"}
{"SMILES": "CC(=O)NCCN(c1nc(NCc2n[nH]c3c2CCCC3)nc(N2CC3C(CCOc4cc(-c5scnc5C)ccc4CNC(=O)[C@@H]4C[C@@H](O)CN4C(=O)[C@@H](NC(=O)C4(F)CC4)C(C)(C)C)C3C2)n1)C(C)C (stereo partly shown)", "target": "VHL-elongin C-elongin B and BRD9", "test": "SPR", "system": "immobilized VHL-elongin C-elongin B", "how to read": "baseline: binary KD over ternary KD", "quantity": "cooperativity alpha", "result": 90}
{"SMILES": "C=CC(=O)N1[C@@H](c2ccc3c(c2)OCO3)c2[nH]c3ccccc3c2C[C@H]1C(=O)N1CCN(C)CC1", "target": "human cyclin E1 wild type-3xFLAG:CDK2", "test": "co-IP with TMT proteomics, refers to: THRAP3", "conditions": "concentration not given, Q9Y2W1", "how to read": "baseline: wild type DMSO", "quantity": "relative co-enrichment", "result": "105%"}
{"SMILES": "C#CCN1CCN(c2nc(N3CCN(c4ccc(Cc5cc(CNC(=O)[C@@H]6C[C@@H](O)CN6C(=O)[C@@H](NC(=O)C6(F)CC6)C(C)(C)C)c(O)cc5-c5scnc5C)cc4)CC3)nc(N3CCN(C(=O)C4CC4)C3)n2)CC1=O", "target": "VHL-elongin C-elongin B and BRD9", "test": "SPR", "system": "immobilized VHL-elongin C-elongin B", "how to read": "baseline: binary KD over ternary KD", "quantity": "cooperativity alpha", "result": 14}
{"SMILES": "O=C(NCc1ccc2c(c1)CN(C(=O)c1cc(-c3ccccc3)no1)C2)C1C=CC=CC=C1", "target": "FSP1 F15A mutant", "test": "resazurin reduction, inhibitor", "conditions": "pH 7.2, together with: 50 µM resazurin, NADH", "quantity": "IC50", "result": "1.07 ± 0.07 µM"}
{"SMILES": "O=C(N/N=C/c1ccc2c(ccc[n+]2Cc2ccccc2)c1)c1cccc(C(=O)N/N=C/c2ccc3c(ccc[n+]3Cc3ccccc3)c2)c1", "target": "MYC parallel G4 DNA", "test": "FRET melting", "conditions": "1 µM, DNA 0.2 µM", "quantity": "ΔTm", "result": "8.5 ± 0.3 °C"}
{"SMILES": "CCCCCC(O)/C=C/C=O (stereo not shown)", "target": "proteome cysteines", "test": "IA-probe labelling, competitive isoTOP-ABPP", "system": "MDA-MB-231 proteome", "quantity": "IC50", "result": "85 µM and 65 µM and 78 µM and 86 µM and 67 µM and 71 µM and 116 µM"}
{"SMILES": "O=C(N/N=C/c1ccc(C[n+]2ccccc2)cc1)C(=O)N/N=C/c1ccc(C[n+]2ccccc2)cc1", "target": "MYC parallel G4 DNA", "test": "FRET melting", "conditions": "1 µM, DNA 0.2 µM", "quantity": "ΔTm", "result": "2.9 ± 0.3 °C"}
{"SMILES": "O=C(Nc1ccccc1)c1ccc(Nc2nnc(-c3ccc(O)cc3)c3ccccc23)cc1", "target": "TRPV1", "test": "nocifensive response", "system": "mouse", "conditions": "intraplantar, 10 µg", "quantity": "licking time", "result": "0 s"}
{"SMILES": "c1ccc(-c2n[nH]cc2-c2ccnc3ccccc23)nc1", "target": "SHA3 (Candida albicans)", "test": "kinase binding, MIB/MS competition", "system": "Candida albicans lysate", "conditions": "1 µM", "how to read": "baseline: DMSO", "quantity": "log2 fold change", "result": -0.06}
{"SMILES": "C[n+]1ccc(/C=N/NC(=O)C(=O)N/N=C/c2cc[n+](C)c3ccccc23)c2ccccc21", "target": "hp2 hairpin duplex DNA", "test": "FRET melting", "conditions": "1 µM", "quantity": "ΔTm", "result": "1.2 ± 0.4 °C"}
{"SMILES": "CCCCCCCCCCCC(=O)N[C@@H](CO)C[C@@H](O)c1cccc(CCCCCC)c1", "target": "CERT", "test": "HPLC-MS/MS, refers to: total sphingomyelin", "system": "HeLa", "conditions": "1 µM, 24 h", "quantity": "sphingomyelin level", "result": "691000 pmol/sample and 698000 pmol/sample and 837000 pmol/sample"}
{"SMILES": "C[n+]1ccc(/C=N/NC(=O)C(=O)N/N=C/c2cc[n+](C)cc2)cc1", "target": "hp2 hairpin duplex DNA", "test": "FRET melting", "conditions": "1 µM", "quantity": "ΔTm", "result": "0.3 ± 0.1 °C"}
{"SMILES": "Nc1ncc(-c2cc(-c3cnn(CC(F)(F)F)c3)ncc2F)nc1C(=O)NC1CNCC(F)C1 (stereo not shown)", "target": "FGFR3", "test": "KINOMEscan", "conditions": "1 µM", "how to read": "baseline: DMSO control", "quantity": "remaining binding", "result": "91%"}
{"SMILES": "O=C(N/N=C/c1cc[n+](CC2CC2)c2ccccc12)c1cc(C(=O)N/N=C/c2cc[n+](CC3CC3)c3ccccc23)ncn1", "target": "hp2 hairpin duplex DNA", "test": "FRET melting", "conditions": "1 µM", "quantity": "ΔTm", "result": "1.2 ± 0.8 °C"}
{"SMILES": "CCCCCCc1cccc(C(O)CC(CO)NC(=O)CCCCCCCCCCNC(C)=O)c1 (stereo not shown)", "target": "CERT", "test": "HPLC-MS/MS, refers to: SM C16", "system": "HeLa", "conditions": "1 µM, 24 h", "quantity": "sphingomyelin level", "result": "597000 pmol and 595000 pmol and 469000 pmol"}
{"SMILES": "C[n+]1ccc(/C=N/NC(=O)c2cccc(C(=O)N/N=C/c3cc[n+](C)cc3)n2)cc1", "target": "MYC parallel G4 DNA", "test": "FRET melting", "conditions": "1 µM, DNA 0.2 µM", "quantity": "ΔTm", "result": "0.6 ± 0.4 °C"}
{"SMILES": "Fc1ccc(Nc2nc(NC3CCCCC3)c3cc(C(F)(F)F)ccc3n2)cc1F", "target": "β2AR/β1AR ECL2/3 chimera", "test": "β-arrestin2 recruitment, antagonist, BRET", "how to read": "baseline: isoprenaline maximal response", "quantity": "maximal inhibition", "result": "-2.9%"}
{"SMILES": "C[n+]1cc(/C=N/NC(=O)c2cncc(C(=O)N/N=C/c3cc4ccccc4[n+](C)c3)n2)cc2ccccc21", "target": "MYC parallel G4 DNA", "test": "FRET melting", "conditions": "1 µM, DNA 0.2 µM", "quantity": "ΔTm", "result": "4.9 °C"}
{"SMILES": "C=CC(=O)Nc1cccc(Cn2ncc3cnc(Nc4cnn(CCOC)c4)nc32)c1", "target": "DCAMKL2 human", "test": "binding, KINOMEscan", "conditions": "100 nM", "how to read": "lower = stronger binding", "quantity": "percent of control", "result": "100%"}
{"note": "For quick reference, copied from above:"}
{"SMILES": "CC(=O)NCCN(c1nc(NCc2n[nH]c3c2CCCC3)nc(N2CC3C(CCOc4cc(-c5scnc5C)ccc4CNC(=O)[C@@H]4C[C@@H](O)CN4C(=O)[C@@H](NC(=O)C4(F)CC4)C(C)(C)C)C3C2)n1)C(C)C (stereo partly shown)", "target": "VHL-elongin C-elongin B and BRD9", "test": "SPR", "system": "immobilized VHL-elongin C-elongin B", "how to read": "baseline: binary KD over ternary KD", "quantity": "cooperativity alpha", "result": 90}
{"SMILES": "C=CC(=O)N1[C@@H](c2ccc3c(c2)OCO3)c2[nH]c3ccccc3c2C[C@H]1C(=O)N1CCN(C)CC1", "target": "human cyclin E1 wild type-3xFLAG:CDK2", "test": "co-IP with TMT proteomics, refers to: THRAP3", "conditions": "concentration not given, Q9Y2W1", "how to read": "baseline: wild type DMSO", "quantity": "relative co-enrichment", "result": "105%"}
{"SMILES": "C#CCN1CCN(c2nc(N3CCN(c4ccc(Cc5cc(CNC(=O)[C@@H]6C[C@@H](O)CN6C(=O)[C@@H](NC(=O)C6(F)CC6)C(C)(C)C)c(O)cc5-c5scnc5C)cc4)CC3)nc(N3CCN(C(=O)C4CC4)C3)n2)CC1=O", "target": "VHL-elongin C-elongin B and BRD9", "test": "SPR", "system": "immobilized VHL-elongin C-elongin B", "how to read": "baseline: binary KD over ternary KD", "quantity": "cooperativity alpha", "result": 14}
{"SMILES": "O=C(NCc1ccc2c(c1)CN(C(=O)c1cc(-c3ccccc3)no1)C2)C1C=CC=CC=C1", "target": "FSP1 F15A mutant", "test": "resazurin reduction, inhibitor", "conditions": "pH 7.2, together with: 50 µM resazurin, NADH", "quantity": "IC50", "result": "1.07 ± 0.07 µM"}
